Measured values collected from several papers.
Every numbered part comes from another study and shows a few of its results, in no order. Changes are numbered by the printed parent chain.

Block 1
Target: Sal-like protein 4, full length isoform B (SALL4, Homo sapiens, UniProt Q9UJQ4-2, residues 1-616)
Technique: universal PBM
Form: double-stranded DNA, one strand shown
Medium: in vitro
Tested at: not given
Notes: 8-mer, flanks averaged, mean of replicates
Direction: higher = stronger binding
Measurement: E-score
Strand = GTGGGTGA; value = -0.0167
Strand = GTATAGAC; value = 0.227
Strand = ATTGTCCC; value = -0.113
Strand = CACAGCCC; value = -0.263
Strand = AGCTGTAC; value = -0.141
Strand = AACAAAGG; value = 0.0819
Strand = AGGATCAA; value = -0.015
Strand = CAGACGAC; value = -0.198
Strand = GTGTATTA; value = 0.326
Strand = CGGACCCA; value = -0.182
Strand = AGCACAGC; value = -0.14

Block 2
Target: CCNF, cyclin fold, Cln2 fusion (human)
Technique: yeast growth competition, sequencing
Medium: yeast
Notes: strong parent motif
Relative to: not given
Direction: higher = stronger binding
Measurement: normalised enrichment score
Starting sequence: RBL1 docking peptide (human); GSAKRRLFGEDPP
Substitution = E10L; value = 7.16
Substitution = G9S; value = 6.73
Substitution = E10T; value = 6.41
Substitution = G1V; value = 8.87
Substitution = F8V; value = 0.906
Substitution = G1I; value = 11.1
Substitution = F8Q; value = 0.153

Block 3
Target: Interferon regulatory factor 5, full length, phosphomimetic (IRF5, Homo sapiens, UniProt Q13568-2, residues 1-514, K96S/S451D/S453D/S456D/S462D)
Technique: protein-binding microarray
Form: double-stranded DNA, one strand shown
Medium: in vitro
Tested at: 250 nM
Notes: 60-bp whole probe
Added: salmon DNA 0.4 mg/ml
Relative to: random background probes
Direction: higher = stronger binding
Measurement: log fluorescence
Constant ends, left off below: GCCTAGCAC … GTCTTGATTCGCTTGACGCTGCTG
Strand = ATTTAAAACAACTTTCAAAGGGTGCTA; value = 0.692 z-score
Strand = TTAGGACTGGGGAGTGGGTTAGTGCTA; value = -0.393 z-score
Strand = GACGGTTTCCTACAGCTGACGTGCTAG; value = 0.138 z-score
Strand = TTAGGTTGCGACTATCGGTTAGTGCTA; value = 6.54 z-score
Strand = TCACTTCTCCCTTTCAGTTTGTGCTAG; value = 1.95 z-score
Strand = TTAGGTCTCCTTCTCCTATAGTGCTAG; value = 0.0322 z-score
Strand = TTAGGACTGGACATTGGGTTAGTGCTA; value = -0.504 z-score
Strand = TGGCACCTCTAGACTCTAAATGTGCTA; value = -0.343 z-score
Strand = GACGGATTGCTTCTCCTGACGTGCTAG; value = -0.163 z-score
Strand = TTAGGCTTCGGTCTCGGTTAGTGCTAG; value = 1.27 z-score

Other studies, line by line
Molecule = GARS1 (Homo sapiens, UniProt P41250); tested on = CHD7 (Homo sapiens, UniProt Q9P2D1); assay = cross-linking MS; system = cell fractions; setting = added: DSSO; measurement = cross-linked residues; value = K318 to K678
Molecule = PhoQ, residues 284 288 289 292 302 303 TYGVAM; tested on = PhoP, residues 12 14 15 18 19 TQAML (Escherichia coli, UniProt P23836); assay = Sort-seq, refers to: YFP reporter; system = E. coli; setting = PhoQ-PhoP variant library, added: 10 µM Mg2+; how to read = relative to: high Mg2+ state, higher = stronger signaling; measurement = fold induction; value = 23.7
Molecule = DR1 (Homo sapiens, UniProt Q01658); tested on = DRAP1 (Homo sapiens, UniProt Q14919); assay = cross-linking MS; system = cell fractions; setting = added: DSSO; measurement = cross-linked residues; value = K23 to K63

Repeated from above (block 3):
Strand = TTAGGACTGGACATTGGGTTAGTGCTA; value = -0.504 z-score
Strand = TGGCACCTCTAGACTCTAAATGTGCTA; value = -0.343 z-score
Strand = GACGGATTGCTTCTCCTGACGTGCTAG; value = -0.163 z-score
Strand = TTAGGCTTCGGTCTCGGTTAGTGCTAG; value = 1.27 z-score
